# Experimental data from different studies.
# A part holds a random share of what one study measured. Substitutions count along the parent as printed.

# Block 1
# Target: RING finger protein unkempt homolog, zinc fingers 1-6, GST-SBP tag (UNK, Homo sapiens, UniProt Q9C0B0, residues 30-357)
# Chain of UniProt Q9C0B0 (30-357, looked up): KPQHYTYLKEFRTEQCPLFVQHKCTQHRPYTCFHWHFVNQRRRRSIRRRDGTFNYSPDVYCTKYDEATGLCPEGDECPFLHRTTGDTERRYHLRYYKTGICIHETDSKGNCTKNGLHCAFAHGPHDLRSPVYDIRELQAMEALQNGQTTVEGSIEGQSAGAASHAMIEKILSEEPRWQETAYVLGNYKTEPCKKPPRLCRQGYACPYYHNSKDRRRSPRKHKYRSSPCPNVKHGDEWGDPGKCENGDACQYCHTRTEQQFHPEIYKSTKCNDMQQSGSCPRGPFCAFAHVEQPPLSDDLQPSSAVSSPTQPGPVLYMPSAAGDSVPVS
# Technique: RNA Bind-n-Seq
# Molecule type: RNA
# Medium: in vitro
# Concentration: not given
# Setting: RNA with constant flanks, human and mouse sites, ends assumed
# Reference: input RNA pool
# Reading: higher = stronger binding
# Constant ends, left off below: GGGAGUUCUACAGUCCGACGAUC … CAACAGAGGAUUGAGCAUCA
Oligonucleotide,bound/input enrichment [ratio]
CCUUCAGUGGUGUAUAGGCUGGAUUCUCUCACCACUCUUUACCUUCGCUUUAAUCGUAUAACUACUGUGGAAAAGGACAUCAAAAACUUGUCAAAACUCAGCAUGCUUAGCAUUCGAGAG,0.106
UUCAGAGUCACAGUUCCCUUUAUUUCACAUAAGCCCAAACUGAUAGACAGUAACGGUGUUUAGUUUUAUACUAUAUUUGUGCUAUUUAAUUCUUUCUAUUUUCACAAUUAUUAAAUUGUG,4.12
ACGACACACCUUGCUGAUGGAGGUUACCGGCUGCUGGAGAAGUCUGGAGGCUUGCAGAUCAGCUUCGAUGUUUACCAGGCUGACGCUGUGGCGACGUUCCGAAAAAACAGCCCUGGCAAA,0.117
UCUCCAGAGCAUAAAGAACUAUCUCAUUCUCCCCCAAGGGAGAAUAGCUUUGAGUCAUCUUUAGAGUUUAAAAACUCAGGCCCUGUUUCAGAAGUAAAUACUGGCUUUUCUCCUGAGGUU,0.172
GGAGAAUGAAUCCUUUGGAUACUUUCAAGGACAUUCAAAUGUGAAAAUGAAUUUUUUACAACUAGAAGUAUUUAUAAUAAAAGACCAAACUUAUUUUUGUAAAUGAACCCAUAUGCUUUA,1.77
CCCACCCACCUACCAGCACUUAAGGCCUAGGACACAAGGUCUGUGUGGCCUCCCAGGCUGUAGGUACCCUCAUCUGCAGAAAAUCAGGGACUAGGAGCAGAGCCCCUCACUGAGCAUGUC,0.183
ACAUUUUCCUUCUGAUAUAUUAUACUUGUAAUGGGCGACAUGGCAAACAACUCAGUUGCUUACAGUGGUGUGAAAAACUCUUUGAAGGAAGCUAAUCAUGAUGGAGACUUUGGAAUUACG,0.153
ACGCCAAACAUGGCGUGUUCCUAGAAGCCGCUUUCGGCAUCAGUAGGCGGCGGCGUGGGGUCUGGCAGCGUGGGGAGAGGGACCAACCGACGCCACUUCGUGUUGGGAAGUGGGAGCGGG,0.404
GUCCCGGACCGCAGUGUUAAAAAGACCUGAACACAUUUGCUGAAACCUCUUGCUGUGAGAUAGCAGAACUUUUGAGCAGGUUUCUCUACACAUAAAAAUCUUUUCAAAAAUACGGAGAAG,0.343
GUGGUUUGGUCGGGGGCCCAGCGGGUGGCCCGGGUCACCGCCCGUGCUUCGGCGGCCAUCUUGCCCGCGCCCGUCUCCCGCGGCGGGAGGGGCGGCGUACAGGCCGGAAACGUCUGUGUG,0.22
UUAGGAAAACAUCAGCUUAAUGAACUUGGGAGUGAAUCUGCUAAAAUUAAAGCCAUGGGUAUAAUGGACAAGCUUUCAACUGACAAAACUGUGAAAGUCCUAAAUAUAUUGGAGAAGAAU,0.285

# Block 2
# Target: CCNF, cyclin fold, Cln2 fusion (human)
# Technique: yeast growth competition, sequencing
# Medium: yeast
# Setting: strong parent motif
# Reference: not given
# Reading: higher = stronger binding
# Starting sequence: MICAL3 docking peptide (human); LQLRRQLSFSEDS; partner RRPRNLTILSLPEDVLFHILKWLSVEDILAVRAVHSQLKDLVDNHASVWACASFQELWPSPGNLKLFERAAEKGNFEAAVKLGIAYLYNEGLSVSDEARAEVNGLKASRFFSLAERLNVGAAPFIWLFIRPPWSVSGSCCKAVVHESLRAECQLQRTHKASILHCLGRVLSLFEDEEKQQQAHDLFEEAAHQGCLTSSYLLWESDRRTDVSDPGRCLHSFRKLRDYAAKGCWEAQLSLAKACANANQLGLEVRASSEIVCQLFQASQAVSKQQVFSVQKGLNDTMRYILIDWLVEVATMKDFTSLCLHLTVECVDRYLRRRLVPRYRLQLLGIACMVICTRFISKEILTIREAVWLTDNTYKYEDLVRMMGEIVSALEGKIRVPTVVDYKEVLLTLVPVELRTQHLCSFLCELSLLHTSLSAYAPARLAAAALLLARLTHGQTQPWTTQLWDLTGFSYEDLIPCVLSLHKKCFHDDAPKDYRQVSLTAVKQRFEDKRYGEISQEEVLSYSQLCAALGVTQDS
Variant,normalised enrichment score
S10Q,5.02
R5K,1.41
R4A,4.41
S8C,7.59
R4G,2.55
Q2V,4.49
S10G,6.48
Q6W,1.94
S10M,5.56
S8H,8.05
F9E,-0.168
Q2F,5.01
R5H,0.0473
Q2K,5.47
S8Y,7.78
Q6T,3.42
Q2E,4.34
Q6P,1.23
S8V,8.07
E11F,5.98
R4K,3.01
Q2W,4.36
S8R,8.01
S10P,6.22
F9V,0.0889

# Block 3
# Target: Interferon regulatory factor 7, full length, phosphomimetic (IRF7, Homo sapiens, UniProt Q92985, residues 1-503, S101K/S471D/S472D/S475D/S476D/S477D/S483D/S484D/S487D)
# Chain of UniProt Q92985 (whole entry, unmodified, looked up): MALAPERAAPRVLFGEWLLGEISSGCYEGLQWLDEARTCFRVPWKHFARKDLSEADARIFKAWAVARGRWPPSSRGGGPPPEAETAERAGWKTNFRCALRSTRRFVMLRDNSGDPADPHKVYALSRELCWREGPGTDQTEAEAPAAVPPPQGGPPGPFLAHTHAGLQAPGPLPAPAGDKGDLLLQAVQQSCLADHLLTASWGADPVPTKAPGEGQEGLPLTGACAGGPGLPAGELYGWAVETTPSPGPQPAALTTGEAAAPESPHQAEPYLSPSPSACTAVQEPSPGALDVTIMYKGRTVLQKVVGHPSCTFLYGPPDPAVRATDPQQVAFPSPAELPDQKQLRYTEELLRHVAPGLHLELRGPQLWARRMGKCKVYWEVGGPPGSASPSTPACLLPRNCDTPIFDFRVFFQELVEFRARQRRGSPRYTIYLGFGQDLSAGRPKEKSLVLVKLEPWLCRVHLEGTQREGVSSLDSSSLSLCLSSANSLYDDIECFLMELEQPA
# Technique: protein-binding microarray
# Molecule type: double-stranded DNA, one strand shown
# Medium: in vitro
# Concentration: 250 nM
# Setting: 60-bp whole probe
# With: salmon DNA 0.4 mg/ml
# Reference: random background probes
# Reading: higher = stronger binding
# Constant ends, left off below: GCCTAGCAC … GTCTTGATTCGCTTGACGCTGCTG
Oligonucleotide,log fluorescence [z-score]
CTTTCTTTATGCACTCTCTACGTGCTA,1.89
ACAGCTCACGCTTTGGAAAGGTGCTAG,-0.339
TCAACTTTCTATGTCTGACTGTGCTAG,0.451
TTAGAACTGAGTTTCGACTAGTGCTAG,3.21
TCAATTTTCATTTTCCAACTGTGCTAG,2.2
TTAGGTTTAGGGTATCGGTTAGTGCTA,0.625
GACCATTTCGGGTATCGAGACGTGCTA,1.07
GGTGTCTAGGTTAGGGATTAGTGCTAG,-0.322
TCATTTCTACTGTCTGTTACTGTGCTA,1.58
TTAGTTTTCGGGACTGGATTAGTGCTA,1.39
AAGTTTATACCTTAGGTTTTGTGCTAG,0.254
GACGATCTCAGACCGGAGACGTGCTAG,-0.221
GACGGGATCCTTTTCCTGACGTGCTAG,0.69
TTTTCATTATTGTGTCAACTTGTGCTA,1.56
GACCGACTGCTTATCCTGACGTGCTAG,-0.413
TTAGGTATCGGGTCTGGGTTAGTGCTA,0.88
TCAAGAATGGGGTTTGCAACTGTGCTA,-0.719
CTACACATCTCACTCTAATCGTGCTAG,0.359
TTAGGTATCGGTTTCGGTTCGTGCTAG,13.1
CACGGACTGCTTATCCTGACGTGCTAG,-0.687
TAGTTTTCAATTTTTGCATCGTGCTAG,1.56
TAAGGTCTCGGTCTCGGTTAGTGCTAG,2.52
TTAAATTTCGGGTTTCGATTAGTGCTA,8.85
TTAGGTTTAGGACTGGGTTAGTGCTAG,0.323
GACGATCTCAGTAACGAGACGTGCTAG,-0.019

# Block 4
# Target: RNA binding protein fox-1 homolog 2, RRM domain, GST-SBP tag (RBFOX2, Homo sapiens, UniProt O43251-10, residues 100-194)
# Technique: RNA Bind-n-Seq
# Molecule type: RNA
# Medium: in vitro
# Concentration: 365 nM
# Setting: natural RNA segment, single round, ends assumed
# Reference: no-protein control
# Reading: higher = stronger binding
# Constant ends, left off below: GGGAGUUCUACAGUCCGACGAUC … UGGAAUUCUCGGGUGCCAA
# Target sequence (chain): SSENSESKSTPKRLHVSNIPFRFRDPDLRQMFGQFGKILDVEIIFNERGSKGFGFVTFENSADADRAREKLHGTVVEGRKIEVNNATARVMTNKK
Oligonucleotide,RBNS enrichment (R)
UUGUUGUUGUUUCCUUUUUGUAUUUUACUGAUAUCACCAGGAUAGUUUACUCUCCUUCUAGCUUUCUGCUUACCGCACACUGGAUAACACACACAUACACACCCACAAAA,0.399
CAGCUCUUAGGAAUAGAAAGGAGGACUGCUGACUGUCUGGCGCUGUAUAAAAAUGUGUAUACCAAUUUGGGAAUAGGGGAACCCAGUCAUGGAUGGAUAAUAAGCCAAGU,0.303
CCUGGAGCUGUGGCCUGAGGGCCUGCUGGGGUCCCACUCACCCACUUAGGUCUAGUCGCUAGAUCCCCCGUUUUCCCAAGAAGAGGGUUCGAGCCCUUGGUGGGGACAGC,0.302
UUCCAUUAUAAUGUUUUCGCAUGUCUGCCUCUAAAACUGUGAUUUUCAAGCUUUAGCGUGCAUCAGAAUCACCUGUAGGGCUUGUUAAAACACUAAUUGCUGGGCCUCAA,2.39
CCAGGCUGGACAAAGCAGGGGGCUACUUCUCCCUUCCCUCGGUUCCAGUCUUCCCUUUAAAAGCCUGUGGCAUUUUUCCUCCUUCUCCCUAACUUUAGAAAUGUUGUACU,0.694
GGCCCUGGGUAGUCUACCAUUUACUUCACCCCAAGUCCUGCUGCCCAUCCAGUUGGGAAGCCAUGAUUUUCCUAAGAAUCCAGGGCCAUGGGAGAUACAAUUCCAAGUUC,0.354
UGGCAUGGUAGCUGAAGCCCACUCCUGUGCAAGCCAUACUGGAACUUCAUAUUGAGAAUAGAAGACGUAGAAAUCAGAUGGAUUUCCAAAGUGGCCAAACUUUUCAACUG,0.669
AGUAGGGGAGUUUCGGUGUACACAUUGAAUUUUCCACUUAUGUAAAUAAAACGGAUUUUGAUAAAUCAUGGUGAGGAAUCUGUUUGUCCUGGGACUGGGUUCAGUGGUGG,0.67
GGGGUGCGUGGAGGAGAGGCCUGGGCUCCUCUACUGGAUCUACACUCUGUCCCAGGUUUUUAGAUCCCACUGAGCCCAGCUGACUGAAAACAAGGACAGUCAGGGUGAAA,0.509
AAAUACAGAAUUGGGAAGACAGGACAGAGGUGACAGAGGAUCUUAAGGGAGCACCCUGUUCCUAGACAGAUGGAGAGGCGUAUCCAUGUUUUCCUACAUAAUGUGGUUAA,0.576
CCCACAUCUCUCUAAUGAUAAGACAUUGGCUCGCCUCUGACCAGAGCCCCAGCACCAGAGAGCGGAAGAUGCAGAAUUGUCAAAUGACCUGCUGGGGGAGGUUGUAGGAG,0.284
AUGAUGAACAUGGAGCUGCAUCUUUUUAAACGUUGUUUUUUGAUGCUUCAGACUCUUAAUGCUUUUAUAUAAAGCUAUCAACUGUAUGUUGAUCACAGUUUAUAAGAAAG,0.325

# Block 5
# Target: NFIL3, bZIP domain (human)
# Technique: DHFR protein complementation
# Medium: yeast
# Setting: single substitutions, most at no-binding floor
# Reference: wild-type JUN-FOS pair
# Reading: higher = stronger binding
# Starting sequence: JUN, bZIP domain (human); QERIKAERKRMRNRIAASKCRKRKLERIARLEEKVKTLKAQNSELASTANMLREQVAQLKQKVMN; partner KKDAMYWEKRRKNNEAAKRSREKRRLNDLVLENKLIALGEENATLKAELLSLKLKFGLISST
Variant,binding fitness [natural log]
L38W,-1.43
K39W,-1.57
A40Q,-1.38
A29S,-1.44
E32C,-1.36
K36A,-1.44
E32H,-1.49
R30H,-1.5
T37R,-1.46
T48H,-1.55
R30C,-1.38
L38C,-1.5
K34A,-1.32
V56M,-1.05
E32T,-1.4
S43A,-1.45
E32V,-1.34
L59H,-1.47
E54W,-1.47
K39I,-1.35
A46E,-1.56
I28Q,-1.33
Q41M,-1.47
N42Y,-1.56
S47W,-1.45
